Results from different studies.
Compare with care: the assays were run in different laboratories. ± gives the spread as reported. ≈ marks a conversion by molar mass, not a printed value. Non-standard residues stand in square brackets, D forms with d. Where no end group is shown, it is not given here. No end group written: not given here. The star is where a group is joined.
CSK: Tyrosine-protein kinase CSK (CSK, Homo sapiens, UniProt P41240)
ESR2: Estrogen receptor beta (ESR2, Homo sapiens, UniProt Q92731)
ESR1: Estrogen receptor (ESR1, Homo sapiens, UniProt P03372)
Kelch domain-containing protein 2: Kelch domain-containing protein 2 (UniProt Q9Y2U9)
CNR2: Cannabinoid receptor 2 (CNR2, Homo sapiens, UniProt P34972)

| Molecule | tested on | test | test system | setting | how to read | quantity | value |
| --- | --- | --- | --- | --- | --- | --- | --- |
| EEEPEYAEIIVLP | CSK | substrate, coupled enzyme | peptide | pH 7.4, room temperature, with: 1 mM ATP, 5 mM MnCl2 | – | kcat/Km | 490 M⁻¹ s⁻¹ |
| CC1N=C(c2ccccc2F)c2cc(Nc3ccccc3)ccc2NC1=O (stereo not drawn) | ADRA2A (Homo sapiens, UniProt P08913) | ligand displacement, radioligand | – | 10 µM | – | inhibition | 66% |
| Cc1cc(O)ccc1-c1cc(Br)c(-c2ccc(O)cc2C)[se]1 | ESR2 | antagonist | HEK293T | highest tested concentration, 24 h, with: estradiol 10 nM | reference: estradiol alone | efficacy | 25 ± 8% |
| Oc1c(Cl)cc(-c2ccccc2Cl)cc1Cl | Aequorin-1 (Aequorea victoria, UniProt P07164, C152S/C159S/C187S) | aequorin bioluminescence, inhibitor | – | 2 h, with: coelenterazine | – | detection limit | 40 µM |
| O=C(Nc1cccnn1)N1CCC(=Cc2cccc(Oc3ccc(C(F)(F)F)cn3)c2)CC1 | Faah (Rattus norvegicus, UniProt P97612) | ex vivo radioactivity | rat brain | intraperitoneal, 0.05 or 0.5 mg/kg, 1 h before tracer, [11C] tracer, 40 min sacrifice | higher = stronger blocking | uptake reduction | 67 to 85% |
| CN1[C@@H]2CC[C@H]1C[C@@H](OC(c1ccccc1)c1ccccc1)C2 | SLC6A3 (Homo sapiens, UniProt Q01959, A479V/A480V) | [3H]CFT competition | COS-7 transfected | A479V-A480V mutant | reference: mutant over wild type | affinity loss | ~20 fold |
| O[C@H](CN1CC[C@H](CCOC(c2ccccc2)c2ccccc2)[C@@H](O)C1)c1ccc(F)cc1 | Transporter (Slc6a2, Rattus norvegicus, UniProt Q63380) | noradrenaline uptake, inhibitor | rat hippocampus | with: [3H]noradrenaline | – | Ki | 20.6 nM |
| Oc1ccc(-c2c[se]cc2-c2ccc(O)c(F)c2)cc1F | ESR1 | antagonist | HEK293T | highest tested concentration, with: estradiol 10 nM | reference: estradiol alone | efficacy | 33 ± 6% |
| O=Cc1ccc(CO)o1 | Hemoglobin subunit alpha, with beta chain (HBA1, Homo sapiens, UniProt P69905) | binding, cation-exchange HPLC-UV/Vis | – | 37 °C | – | association rate constant kon | 0.128 M⁻¹ s⁻¹ |
| CC12CC3CC(C)(C1)CC(N)(C3)C2 | Glutamate NMDA receptor; Grin1/Grin2a (Grin1/Grin2a, Rattus norvegicus, UniProt P35439+Q00959) | NMDA current unblock, whole-cell patch clamp | tsA201 cells | 10 µM, holding potential -60 mV, with: 100 µM NMDA plus 10 µM glycine | – | current recovery after washout | 94.2 ± 2.1% |
| YKKRLSVELT | PAK4 (Homo sapiens, UniProt O96013) | kinase activity, substrate | peptide | – | – | kcat/Km | 300 ± 100 M⁻¹ s⁻¹ |
| ERMLFEW (disulfide (positions not given here)) (cyclic, disulfide) | HIV-1 neutralising antibody 4E10 | phage binding, M13 phage ELISA | – | concentration not given | lower = stronger binding | binding titer | 8.6e+06 M13/mL |
| Oc1cc(-c2ccc(-c3ccc(F)c(O)c3)[se]2)ccc1F | ESR2 | antagonist | HEK293T | highest tested concentration, 24 h, with: estradiol 10 nM | reference: estradiol alone | efficacy | 79 ± 3% |
| CCOC(=O)OC(=O)OCC | ADH1 (Saccharomyces cerevisiae, UniProt P00330, H45R) | enzyme activity, inactivator | – | 90 µM, pH 8.0, 30 °C, turnover number | – | remaining activity | 18 s⁻¹ |
| CC[C@H](C)[C@H](NC(=O)[C@H](CCCCN)NC(=O)[C@H](Cc1ccccc1)NC(=O)[C@H](CCCCNC(=O)[C@H](CC(C)C)NC(=O)[C@@H]1CCCN1C(=O)[C@H](CCCCN)NC(=O)CCS[C@@H]1O[C@H](CO)[C@H](O)[C@H](O)[C@H]1O)NC(=O)[C@H](CC(C)C)NC(=O)[C@@H]1CCCN1C(=O)[C@H](CCCCN)NC(=O)CCS[C@@H]1O[C@H](CO)[C@H](O)[C@H](O)[C@H]1O)C(N)=O | lecA (Pseudomonas aeruginosa, UniProt Q05097) | hemagglutination, inhibitor | rabbit erythrocytes | 30 min, 4 °C | – | MIC | 630 µM (≈ 1080 µg/mL) |
| Cc1cccc(Oc2ccc(C(=O)N[C@H](CN3CCN(c4cccc(O)c4)[C@@H](C)C3)C(C)C)cc2)c1 | OPRM1 (Homo sapiens, UniProt P35372) | antagonist | CHO | with: DAMGO | – | Ke | 13 ± 4 nM |
| Cc1ccc(C)n1-c1ccc(-c2ccc(/C=C/C(=O)O)cc2)c(C(=O)O)c1 | Envelope glycoprotein gp160, gp41 six-helix bundle (env, Human immunodeficiency virus type 1 group M subtype B, UniProt P04578) | six-helix bundle formation | – | concentration not given | reference: A12 | fold inhibition improvement | ~1.4 |
| c1cnc2cc3c(cc2n1)[C@@H]1CNC[C@H]3C1 | Chrnb2/Chrna6 (Rattus norvegicus, UniProt P12390+P43143, L273S/L280S/L348M/R364A/R365A/R367A) | ion current, agonist | – | concentration not given, rat receptor, unit not given | reference: acetylcholine maximum current | efficacy | 0.33 ± 0.02 |

| Molecule | tested on | test | test system | setting | how to read | quantity | value |
| --- | --- | --- | --- | --- | --- | --- | --- |
| CC(C)[C@@H](CN1CCN(c2cccc(O)c2)[C@@H](C)C1)NC(=O)c1ccc(Oc2cccc(F)c2)cc1 | OPRK1 (Homo sapiens, UniProt P41145) | antagonist | CHO | with: U69593 | – | Ke | 1.48 ± 0.51 nM |
| CC(C)C[C@H](NC(=O)[C@H](CO)NC(=O)[C@H](CC(C)C)NC(=O)[C@@H]1CCCN1C(=O)CNC(=O)[C@H](Cc1ccccc1)NC(=O)[C@H](Cc1ccccc1)NC(=O)Cc1ccc2ccccc2c1)C(=O)N[C@@H](CCCNC(=N)N)C(=O)N[C@@H](CO)C(=O)N[C@@H](CCCCN)C(=O)O | MMP9 (Homo sapiens, UniProt P14780) | substrate, HPLC | – | 500 µM, 72 h, pH 7.5, 37 °C | – | hydrolysis product | 70% |
| HPQFEKGG | Kelch domain-containing protein 2 | native mass spectrometry | peptide, 200 mM ammonium acetate | 20 µM Kelch domain-containing protein 2, pH 7 | reference: total Kelch domain-containing protein 2 signal | fraction of protein bound | 1.5% |
| CC1(NC(=O)c2nn(Cc3ccc(F)cc3)c3ccccc23)CCCN(CC(N)=O)C1 (stereo not drawn) | CNR2 | calcium mobilization, agonist | CHO-K1 expressing Gαq16 | – | reference: CP55,940 maximum | Emax | 102 ± 3% |
| PIL[pS]EGASR (phospho-Ser4; pS = N[C@@H](COP(=O)(O)O)C(=O)O) | CTD nuclear envelope phosphatase 1 (CTDNEP1, Homo sapiens, UniProt O95476) | substrate, MESG-coupled phosphate release | – | 25 °C | – | kcat | 0.17 ± 0.01 s⁻¹ |
| cAMP | Potassium/sodium hyperpolarization-activated cyclic nucleotide-gated channel 2, C-terminal region (Hcn2, Mus musculus, UniProt O88703, R635A) | isothermal titration calorimetry | – | R635A, low-affinity site | – | stoichiometry | 0.45 ± 0.02 |
| CN[C@@](C)(C[18F])C(=O)O | – | – | SCID mouse DU-145 xenograft, liver | 60 min, post injection | – | tissue uptake | 4.9 ± 0.6 %ID/g |
| anthraquinone-neomycin | poly(dA)•2poly(dT) triplex | DNA binding, isothermal titration calorimetry | – | concentration not given, pH 6.8, KCl 150 mM | – | heat capacity change | -231 ± 6 cal/(mol·K) |
| NC(=O)CN1CCC[C@H](NC(=O)c2nn(Cc3ccc(F)cc3)c3ccccc23)C1 | CNR2 | calcium mobilization, agonist | CHO-K1 expressing Gαq16 | – | reference: CP55,940 maximum | Emax | 61 ± 6% |
| SHPQFEKGGGSGGGSGG | Kelch domain-containing protein 2 | native mass spectrometry | peptide, 200 mM ammonium acetate | 20 µM Kelch domain-containing protein 2, pH 7 | reference: total Kelch domain-containing protein 2 signal | fraction of protein bound | 0.3% |
| CC[C@H]1O[C@]2(C)[C@H](OC(C)=O)[C@@]1(C)O[C@@H](/C=C/C=C/C=C/c1oc(=O)cc(OC)c1C)[C@@H]2O | atpD, in F1Fo complex (Escherichia coli, UniProt P0ABB4) | ATP hydrolysis, single-molecule FRET | liposome-reconstituted F1Fo-ATPase | – | – | dwell time rise constant | 7.8 ± 1.2 ms |
| Oc1ccc(-c2ccc(-c3ccc(O)cc3F)[se]2)c(F)c1 | ESR2 | antagonist | HEK293T | highest tested concentration, 24 h, with: estradiol 10 nM | reference: estradiol alone | efficacy | 91 ± 6% |
| SSAWSHPQFEKGGGSGGG | Kelch domain-containing protein 2 | native mass spectrometry | peptide, 200 mM ammonium acetate | 20 µM Kelch domain-containing protein 2, pH 7 | reference: total Kelch domain-containing protein 2 signal | fraction of protein bound | 0.4% |
| Oc1ccc(-c2cc(Br)c(-c3ccc(O)c(Cl)c3)[se]2)cc1Cl | ESR1 | antagonist | HEK293T | highest tested concentration, with: estradiol 10 nM | reference: estradiol alone | efficacy | 19 ± 2% |
| COc1cccc2c1C(=O)c1c(O)c3c(c(O)c1C2=O)C[C@@](O)(C(C)=O)C[C@@H]3O[C@H]1C[C@H](N)[C@H](O)[C@H](C)O1 | SLC22A5 (Homo sapiens, UniProt O76082) | transporter uptake, inhibitor | – | 1 mM | – | inhibition | 56% |
| CC(C)c1ccc(NC(=O)Oc2ccc3c(c2)[C@]2(C)CCN(CCc4ccccc4)[C@@H]2N3C)cc1 | CES1 (Homo sapiens, UniProt P23141) | irreversible inhibitor | – | 5× IC50 or 200 µM, 1 h, preincubation then inhibitor removal, with: o-nitrophenyl acetate substrate | – | remaining activity | 0% |
| Ac-LDEVD-pNA (N-acetyl, C-pNA; pNA = O=[N+]([O-])c1ccc(N*)cc1) | Caspase-3 (CASP3, Homo sapiens, UniProt P42574) | substrate, colorimetric p-nitroanilide release | – | pH 7.5, room temperature | – | kcat | 0.883 ± 0.05 s⁻¹ |
| DDEPEYIEFDAHN | CSK | substrate, coupled enzyme | peptide | pH 7.4, room temperature, with: 1 mM ATP, 5 mM MnCl2 | – | kcat/Km | 850 M⁻¹ s⁻¹ |

Repeated from above:
| Molecule | tested on | test | test system | setting | how to read | quantity | value |
| --- | --- | --- | --- | --- | --- | --- | --- |
| COc1cccc2c1C(=O)c1c(O)c3c(c(O)c1C2=O)C[C@@](O)(C(C)=O)C[C@@H]3O[C@H]1C[C@H](N)[C@H](O)[C@H](C)O1 | SLC22A5 (Homo sapiens, UniProt O76082) | transporter uptake, inhibitor | – | 1 mM | – | inhibition | 56% |
| SSAWSHPQFEKGGGSGGG | Kelch domain-containing protein 2 | native mass spectrometry | peptide, 200 mM ammonium acetate | 20 µM Kelch domain-containing protein 2, pH 7 | reference: total Kelch domain-containing protein 2 signal | fraction of protein bound | 0.4% |
